Experimental data gathered from unrelated publications.
Each numbered part is a random draw from the data of one study; scales do not carry over between parts.

Series 1
Target: Histone acetyltransferase KAT6A, both winged helices, GST fusion (KAT6A, Homo sapiens, UniProt Q92794, residues 1-181)
Technique: protein binding microarray
Form: double-stranded DNA, one strand shown
Matrix: in vitro
Concentration: not given
Setting: 8-mer, flanks averaged, mean of 2 arrays, mostly near background
Reference: not given
Reading: higher = stronger binding
Target sequence (chain): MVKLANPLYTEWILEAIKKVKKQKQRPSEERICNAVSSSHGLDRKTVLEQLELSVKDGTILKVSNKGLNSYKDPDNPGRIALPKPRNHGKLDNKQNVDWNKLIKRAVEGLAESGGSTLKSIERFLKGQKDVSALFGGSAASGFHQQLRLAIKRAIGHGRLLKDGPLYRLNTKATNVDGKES
`GAGTCCAC` has an E-score of -0.0365.
With `CGCCGACC` the E-score was 0.288.
`AAGTCGCA` gave an E-score of 0.118.
The E-score of `GTGGCCGA` is reported as 0.0901.
The E-score of `GACGGCAC` is reported as 0.202.
For `GCCCTGGA`, the E-score was -0.108.
The E-score of `AGCACGCC` is reported as 0.0602.
`CGAACATA` gave an E-score of -0.12.
`AACGTACA` has an E-score of -0.0867.
The E-score of `ACCATAGC` is reported as -0.0681.
With `CCTCGCTA` the E-score was -0.00874.
With `GCCTTAGA` the E-score was 0.0943.
`ATTTCCAC` gave an E-score of -0.0516.
`ATGTTGAC` gave an E-score of 0.0322.
`ATAGACTA` gave an E-score of -0.232.
`GGAGAATA` gave an E-score of -0.108.
`GAAAGGCC` gave an E-score of 0.113.
For `ACCAGCGA`, the E-score was -0.0155.
With `ATGTGGTG` the E-score was -0.0858.
For `GAAGGAAC`, the E-score was 0.0925.
With `CCGGCGAC` the E-score was 0.289.
For `CAACGTCC`, the E-score was -0.00231.

Series 2
Target: RING finger protein unkempt homolog, zinc fingers 1-6, SBP tag (UNK, Homo sapiens, UniProt Q9C0B0, residues 30-357)
Chain of UniProt Q9C0B0 (30-357, looked up): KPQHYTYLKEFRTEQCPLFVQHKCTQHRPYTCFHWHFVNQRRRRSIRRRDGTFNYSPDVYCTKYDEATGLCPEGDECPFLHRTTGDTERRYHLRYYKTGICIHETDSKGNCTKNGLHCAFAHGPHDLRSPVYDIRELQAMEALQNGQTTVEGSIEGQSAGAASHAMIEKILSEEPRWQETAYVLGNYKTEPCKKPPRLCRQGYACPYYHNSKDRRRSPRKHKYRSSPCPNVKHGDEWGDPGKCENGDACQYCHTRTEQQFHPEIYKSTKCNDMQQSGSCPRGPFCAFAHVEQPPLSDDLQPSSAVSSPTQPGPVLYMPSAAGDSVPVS
Technique: RNA Bind-n-Seq
Form: RNA
Matrix: in vitro
Concentration: 100 nM
Setting: RNA with constant flanks, vertebrate orthologous sites, ends assumed
Reference: input RNA pool
Reading: higher = stronger binding
`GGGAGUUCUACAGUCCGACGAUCGAGCACUGCCUGUGUGUACCCACAGCACUGCAGGCAAAGUAGUAAUUCCACAGUCACAGUAAGAGAGCUUCAGGGCAGUGUCACCAUGGUUCUCUCAUGGGCAGGUUCUGAAAAUGUACACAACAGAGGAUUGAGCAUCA` gave a bound/input enrichment of 0.571 ratio.
The bound/input enrichment of `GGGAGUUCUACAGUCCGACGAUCAAGAACUCUUGCAGUCUUAGAUGUUAUAAAAAAUAUAUAUAUCUGAAUUGUAAGAGUUGUUAGCACAGUUUUUUGGUUUUUUUUUUUUUAGCACUUGUUUUGGGUACAAGGCAUUUUUGACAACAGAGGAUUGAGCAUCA` is reported as 1.48 ratio.
`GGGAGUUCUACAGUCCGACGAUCUUUUAUUGAUCAGGUCUGUAAAUGUGUACUAAAAAAAUCAGAGUUUAUUUAUAAACAGAAUAGUUUAUUUAAAGAGAAGGUCUUCAUUGAUACUGUGGUAUGCAUUAAUUCCAUUUGUUACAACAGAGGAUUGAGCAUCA` gave a bound/input enrichment of 0.413 ratio.
For `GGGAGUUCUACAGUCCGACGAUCUGUUAGUUAUUGAUGGACUCUAUUUUUUUAUUAUUACUUGGACCUUGGUCGUUUUUAUACUAGCAAAAUGUCUUGUUUUAAUUUGUGUUUUUUGGGGGGGAGGGAGUGAACUUGCUGAUUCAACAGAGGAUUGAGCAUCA`, the bound/input enrichment was 2.68 ratio.
The bound/input enrichment of `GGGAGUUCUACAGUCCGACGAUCCAUAUCCUUGUUACUGUGAUAUUUAAAAUAUCCACAGUGUCCACCUUUUCCAAAAGAUUCUAGUAAUGAUCUAGAAAUAUCUUUCUCUUAUCUGUUAUUUAUCAAUUUUUCCCAGUAUUUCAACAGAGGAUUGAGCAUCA` is reported as 0.812 ratio.
For `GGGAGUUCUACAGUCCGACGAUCCUUCUCACGCUCUUACAUGAGUGGAUUAUUAUUUUCUUUCUUUUUUUUUAUGUUUUGUAUAGAAAACAAAUUCAUUUAAACAAACUUAUUAUUAUUAUUAUUUUUUACAAAAUAUAUAUACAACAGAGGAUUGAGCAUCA`, the bound/input enrichment was 2.66 ratio.
The bound/input enrichment of `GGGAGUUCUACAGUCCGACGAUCGUUCUGGUACAAAGCUCUACGUACCAACGCUUGUCAUCCUUACAUCAUACCAACUAUUCCUAGGUGUAGGAGUUUAAUAUUUUUCAAAAGUUUUACAUUGCUGUAUAUUCAAAGAUUUCUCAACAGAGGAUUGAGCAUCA` is reported as 0.465 ratio.
`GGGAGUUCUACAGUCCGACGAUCCUCUAGAUCUUAACAACCGACGCUCCUAAAAGAUUUAGAAAAAAAGUUUACAACAUAAUCUAGUUUACGAAGAAGUCUUGUGCUAGAAUACUUUUUAAAAAGUAUUUUUGAAUACCAUUACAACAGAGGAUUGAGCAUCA` has a bound/input enrichment of 0.51 ratio.
The bound/input enrichment of `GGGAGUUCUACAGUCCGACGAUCUUCACCACUCCUGGGUGCGUGACUGAGGGUGAAGCAUCCACCAGCACUUCAAGGGGUCCAUAGUAUUUUCUUUUGCUGCCUCAAAGUCCCCAAAGCCUUCAAGCGGAAGUGGCAGUAGAUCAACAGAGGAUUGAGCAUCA` is reported as 0.66 ratio.
With `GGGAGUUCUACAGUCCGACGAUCGUGGGGACAUAUUCUGGGGAGCUACCGGGCACUUACAUUAUUUGAUUUAUGACCUUGACUUACUAGAUAGGCUUUUCUUUUUUUAAUUUAAAAAUAUUGACUUCACAAAAGUUUAUUCUACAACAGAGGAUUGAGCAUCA` the bound/input enrichment was 0.659 ratio.
`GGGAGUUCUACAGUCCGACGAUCAAACCAUGGCCGCUUUUUACUGCCUCAGUGAGGUAGUCUCCCUUGAUGUUUGGUUGUGACAAGAGCCCAUCGUACCGAAUAAGUCUUUCCACAUUUCAUUUCUUUCACGCUCUUAGUCGCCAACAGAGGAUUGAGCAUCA` has a bound/input enrichment of 0.375 ratio.

Series 3
Target: ATP-dependent RNA helicase DDX3X, helicase core (DDX3X, Homo sapiens, UniProt O00571, residues 132-607)
Chain of UniProt O00571 (132-607, looked up): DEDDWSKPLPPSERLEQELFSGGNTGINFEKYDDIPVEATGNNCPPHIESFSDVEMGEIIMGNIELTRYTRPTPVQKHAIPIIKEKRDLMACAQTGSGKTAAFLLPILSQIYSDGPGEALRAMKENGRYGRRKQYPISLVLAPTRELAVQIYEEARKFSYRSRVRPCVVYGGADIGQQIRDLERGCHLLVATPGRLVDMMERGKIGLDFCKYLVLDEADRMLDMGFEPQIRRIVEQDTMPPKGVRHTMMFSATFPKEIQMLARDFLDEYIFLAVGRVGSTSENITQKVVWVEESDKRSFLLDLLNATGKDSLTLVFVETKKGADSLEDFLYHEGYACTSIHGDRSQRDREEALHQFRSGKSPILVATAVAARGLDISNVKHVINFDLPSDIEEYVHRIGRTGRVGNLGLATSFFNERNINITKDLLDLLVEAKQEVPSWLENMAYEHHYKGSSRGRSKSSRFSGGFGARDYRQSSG
Technique: RNA Bind-n-Seq
Form: RNA
Matrix: in vitro
Concentration: not given
Setting: 4-mer, random 30-nt RNA, single round
Added: RocA, ADP, phosphate
Reference: input library
Reading: higher = stronger binding
`AAAC` has a 4-mer enrichment of 0.812 fold.
The 4-mer enrichment of `UUGG` is reported as 1.09 fold.
With `AGGA` the 4-mer enrichment was 2.12 fold.
`AAUG` gave a 4-mer enrichment of 1.11 fold.
`CUCC` gave a 4-mer enrichment of 0.816 fold.
`GUCA` gave a 4-mer enrichment of 0.842 fold.
`AAGU` gave a 4-mer enrichment of 1.14 fold.
`UCAG` has a 4-mer enrichment of 0.811 fold.
`UGAA` has a 4-mer enrichment of 1.16 fold.
`CGUC` has a 4-mer enrichment of 1.15 fold.
The 4-mer enrichment of `ACAA` is reported as 0.819 fold.
With `GUAG` the 4-mer enrichment was 1.33 fold.
The 4-mer enrichment of `AAUC` is reported as 0.775 fold.
`AUGG` gave a 4-mer enrichment of 1.07 fold.
`UGCA` gave a 4-mer enrichment of 0.766 fold.
`GCGU` has a 4-mer enrichment of 1.04 fold.
The 4-mer enrichment of `GAAA` is reported as 1.37 fold.
The 4-mer enrichment of `UGUG` is reported as 1.17 fold.
The 4-mer enrichment of `CUAU` is reported as 0.724 fold.

Series 4
Target: Interferon regulatory factor 7, full length, phosphomimetic (IRF7, Homo sapiens, UniProt Q92985, residues 1-503, S101K/S471D/S472D/S475D/S476D/S477D/S483D/S484D/S487D)
Chain of UniProt Q92985 (whole entry, unmodified, looked up): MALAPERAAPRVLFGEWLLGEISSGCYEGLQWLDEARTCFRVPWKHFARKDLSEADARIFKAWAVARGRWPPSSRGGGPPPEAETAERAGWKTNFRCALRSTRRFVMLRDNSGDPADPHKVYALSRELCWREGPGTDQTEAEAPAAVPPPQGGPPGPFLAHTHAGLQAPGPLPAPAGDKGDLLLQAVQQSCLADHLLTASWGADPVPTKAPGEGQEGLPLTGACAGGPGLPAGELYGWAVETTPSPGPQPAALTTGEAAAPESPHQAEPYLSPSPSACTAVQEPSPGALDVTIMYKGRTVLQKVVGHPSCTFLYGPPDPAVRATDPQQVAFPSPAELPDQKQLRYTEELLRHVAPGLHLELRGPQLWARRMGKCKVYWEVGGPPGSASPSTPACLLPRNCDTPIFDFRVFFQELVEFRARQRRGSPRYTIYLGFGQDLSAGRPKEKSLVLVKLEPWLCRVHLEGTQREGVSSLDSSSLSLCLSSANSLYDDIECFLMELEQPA
Technique: protein-binding microarray
Form: double-stranded DNA, one strand shown
Matrix: in vitro
Concentration: 250 nM
Setting: 60-bp whole probe
Added: salmon DNA 0.4 mg/ml
Reference: random background probes
Reading: higher = stronger binding
Shared flanks, not repeated: GCCTAGCAC … GTCTTGATTCGCTTGACGCTGCTG
The log fluorescence of `TCATTTCTCAGTTTATTACTGTGCTAG` is reported as 2.49 z-score.
For `TTGCCTCTGCTGCTGGCCGCGTGCTAG`, the log fluorescence was 0.0888 z-score.
`TTAAGACTGCTTTTCCTTTAGTGCTAG` gave a log fluorescence of 1.03 z-score.
For `TTAGATTTCAGTATCGATTTGTGCTAG`, the log fluorescence was 3.55 z-score.
For `GACGATTTTAGTATCGAGACGTGCTAG`, the log fluorescence was 0.644 z-score.
For `GACGCTCTCGGTATCGGGACGTGCTAG`, the log fluorescence was 0.639 z-score.
`GACGGTATCGGTTTCGCGACGTGCTAG` has a log fluorescence of 5.3 z-score.
With `TCAACACTGGTTTTTACACTGTGCTAG` the log fluorescence was -0.473 z-score.
With `TCAAATTTTTTTCTAAGACTGTGCTAG` the log fluorescence was 0.113 z-score.
For `CTCATTCTCTGCTTGCGTCTGTGCTAG`, the log fluorescence was 1.6 z-score.
`ATAGGTATCGACTTTCGGTTAGTGCTA` gave a log fluorescence of 3.12 z-score.
With `GACGATACCAGACTGGAGACGTGCTAG` the log fluorescence was -0.254 z-score.
For `TTAGGTCTCGGGTATCGGTTAGTGCTA`, the log fluorescence was 2.3 z-score.
`TTAGATTTCGGGTTTTGATTAGTGCTA` has a log fluorescence of 2.19 z-score.
`CAGCCAATCAGGACTCAGGGAGTGCTA` gave a log fluorescence of -0.711 z-score.
With `GACGGTTCCGGTTTCGGGATGTGCTAG` the log fluorescence was 8.31 z-score.
`TTTATTTTTACATTATTACCGTGCTAG` gave a log fluorescence of 1.07 z-score.
The log fluorescence of `CTCATTTTCATTTTGTGTCTGTGCTAG` is reported as 2.74 z-score.
`GACGGTATCGACTATCGGGAAGTGCTA` has a log fluorescence of 0.169 z-score.

Excerpt of the above (series 3):
`UGCA` gave a 4-mer enrichment of 0.766 fold.
With `GUAG` the 4-mer enrichment was 1.33 fold.
`GCGU` has a 4-mer enrichment of 1.04 fold.
The 4-mer enrichment of `GAAA` is reported as 1.37 fold.
The 4-mer enrichment of `UUGG` is reported as 1.09 fold.
`UCAG` has a 4-mer enrichment of 0.811 fold.
The 4-mer enrichment of `CUAU` is reported as 0.724 fold.
`CGUC` has a 4-mer enrichment of 1.15 fold.
With `AGGA` the 4-mer enrichment was 2.12 fold.
